Results from different studies.
Each line is one published result; not all experiments were run side by side. Values joined by “and” are separate records of one study, mostly repeats; a detail may differ. ± gives the spread as reported.
TDP1: Tyrosyl-DNA phosphodiesterase 1 (TDP1, Homo sapiens, UniProt Q9NUW8)
Sequence of UniProt Q9NUW8 (whole entry, looked up): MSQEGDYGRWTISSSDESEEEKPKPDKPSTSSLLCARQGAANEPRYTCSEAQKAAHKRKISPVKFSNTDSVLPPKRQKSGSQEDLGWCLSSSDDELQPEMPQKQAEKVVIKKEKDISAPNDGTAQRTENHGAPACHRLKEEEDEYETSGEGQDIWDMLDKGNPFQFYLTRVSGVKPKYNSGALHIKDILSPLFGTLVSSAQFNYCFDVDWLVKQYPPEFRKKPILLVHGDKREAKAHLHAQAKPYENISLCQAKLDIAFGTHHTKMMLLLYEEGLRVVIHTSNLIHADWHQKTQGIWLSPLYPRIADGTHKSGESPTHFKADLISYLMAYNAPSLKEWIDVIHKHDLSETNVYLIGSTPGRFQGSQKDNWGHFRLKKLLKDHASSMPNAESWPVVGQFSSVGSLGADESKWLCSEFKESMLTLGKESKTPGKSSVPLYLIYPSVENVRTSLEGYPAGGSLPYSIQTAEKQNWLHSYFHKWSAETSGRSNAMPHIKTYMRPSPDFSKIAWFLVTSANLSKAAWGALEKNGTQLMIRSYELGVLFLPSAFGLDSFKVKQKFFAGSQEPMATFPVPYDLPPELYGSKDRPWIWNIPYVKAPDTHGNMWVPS

| SMILES | tested on | assay | setting | scale | measurement | value |
| --- | --- | --- | --- | --- | --- | --- |
| O=C1CCCC2=C1C(c1c[nH]c3ccccc13)c1cc(Br)ccc1O2 (stereo not shown) | 3T3-L1 preadipocytes | adipogenesis, Oil Red O staining | IC20, 14 days |  | mean lipid content | 0.616 OD492 |
| O=C(C[Se]C(=O)c1cc2ccccc2s1)Nc1cccc(C(F)(F)F)c1 | NCI60 CNS subpanel | cell growth | 10 µM, 48 h, one-dose |  | mean growth percent | -87.5% |
| COc1cccc(/C=C/C(=O)Nc2cc(Nc3nccc(-c4cn(C)c5ccccc45)n3)c(OC)cc2N(C)CCN(C)C)c1 | NCI-H1975 | cell growth or viability, MTT | 0.5 µM, 72 h |  | inhibition | 67.8% |
| COc1ccc(NC(=O)c2c(Nc3ccccc3)sc(C(=O)N/N=C/c3ccc(OC)c(OC)c3)c2NC(C)=O)cc1 | HepG2 | cell growth or viability, SRB | 1 nM, 48 h |  | viability | 99.9% |
| CN1CCCNC(=O)c2cccc(c2)C(=O)NCCCN(C)CCCNc2cccc3c2C(=O)c2cccc(c2C3=O)NCCC1 | SAS | RNA-Seq, measured: RBM39 mRNA | 1 µM, 6 h | baseline: untreated cells | log2 fold change | -0.909 |
| C[N+](C)(CCCN1c2ccccc2CCc2ccc(Cl)cc21)Cc1ccccc1 | Uncharacterized protein (Trypanosoma brucei brucei, UniProt Q386Q8) | enzyme activity, inhibitor, coupled colorimetric | with: E. coli pyrophosphatase coupling |  | IC50 | 36.7 µM |
| COc1ccccc1-c1ccncc1C(=O)Nc1nnc(OCc2ccc(Cl)cc2)s1 | DLD-1 BRCA2 knock-out | immunofluorescence | 5 µM, 96 h |  | γH2AX foci-positive nuclei | 48% |
| COc1cc(N(C)CCN(C)C)c(NC(=O)/C=C/c2cccc(CC#N)c2)cc1Nc1nccc(-c2cn(C)c3ccccc23)n1 | NCI-H1975 | cell growth or viability, MTT | 0.5 µM, 72 h |  | inhibition | 62.8% |
| O=C(C[Se]C(=O)c1cc2ccccc2o1)Nc1cccc(C(F)(F)F)c1 | NCI60 melanoma subpanel | cell growth, inhibitor | five-dose |  | GI50 | 1.66 µM |
| CCc1n(CC(=O)O[C@@H]2C[C@H](C)CC[C@H]2C(C)C)c2ccccc2[n+]1C | HTS cells (mouse) | gene microarray, measured: COX6A2 | 1 µM, 24 h, unit not given | baseline: untreated | mRNA level | 7.43 |
| Cn1ncc(Cl)c1C=NOCc1ccc2nc(-c3ccccc3)c(Nc3ccc(C(=O)O)cc3)n2c1 | TDP1 | enzyme activity, inhibitor | 100 µM, unpurified compound |  | inhibition | 17.2% |
| O=C(C[Se]C(=O)c1ccccc1Nc1cccc(C(F)(F)F)c1)Nc1cccc(C(F)(F)F)c1 | NCI60 CNS subpanel | cell growth | 10 µM, 48 h, one-dose |  | mean growth percent | -90.9% |
| CCCCCCc1cccc(C(O)CC(CO)NC(=O)CCCCCCCCCCNC(C)=O)c1 (stereo not shown) | HeLa | CERT activity, HPLC-MS/MS lipidomics, measured: lactosylceramide 24:1 | 1 µM, 24 h, not cell-number normalised |  | lactosylceramide level | 5710 pmol/sample and 7280 pmol/sample and 4120 pmol/sample |
| CCNc1cc2c(cc1C)C1(c3cc(C)c(NCC)cc3O2)c2ccccc2C(=O)N1N=Cc1c[c-]c(-c2ccccn2)cc1.Cc1c(C)c(-c2ccc(-c3ccccc3)cc2)[c-](C)c1C.[Cl-].[Ir+3] | A549 | PI flow cytometry | 1 x IC50, 24 h |  | G2/M phase cells | 13.65 ± 0.13% |
| Cn1ncc2cc(-c3cncc(Cl)c3N3CCC4(CCNC4=O)CC3)ccc21 | LS174T | gene expression, microarray, measured: HDAC2 mRNA | concentration not given, 24 h | baseline: untreated cells | log2 fold change | -2.01 |
| Cc1ccc(C(C=NOCc2ccc(-c3nc4cc(-c5ccccc5)ccn4c3Nc3ccc(C(=O)O)cc3)cc2)=CN(C)C)cc1 (mixture of isomers) | TDP1 | enzyme activity, inhibitor | 100 µM, unpurified compound |  | inhibition | 54.2% |
| Nc1c(S(=O)(=O)O)cc(Nc2cccc(S(N)(=O)=O)c2)c2c1C(=O)c1ccccc1C2=O | primary mouse articular chondrocytes | Western blot, measured: Phlpp2 | 25 µM, days 0-6 and 0-9 | baseline: vehicle | protein level | 50 to 70% |

| SMILES | tested on | assay | setting | scale | measurement | value |
| --- | --- | --- | --- | --- | --- | --- |
| COc1ccc2c(c1)OC1=C(C(=O)CCC1)C2c1c[nH]c2ccccc12 (stereo not shown) | 3T3-L1 preadipocytes | adipogenesis, Oil Red O staining | IC20, 14 days |  | mean lipid content | 0.498 OD492 |
| C=CC(=O)N1[C@H](c2ccc3c(c2)OCO3)c2[nH]c3ccccc3c2C[C@@H]1C(=O)NC1CC1 | rat DRG neurons |  | 1.111 µM, 48 h, with: vincristine 40 nM |  | neuron degeneration | 22.4% and 21.8% |
| C=CC(=O)Nc1cc(Nc2nccc(-c3c(-c4ccc5c(c4)OCO5)n(C)c4ccccc34)n2)c(OC)cc1N(C)CCN(C)C | NCI-H1975 | cell growth or viability, MTT | 0.5 µM, 72 h |  | inhibition | 73.2% |
| CNS(=O)(=O)Nc1nccc(Cc2c(C)c3ccc(Oc4ncccc4F)cc3oc2=O)c1F | RKO | cell viability | 7 days |  | IC50 | 0.156 µM |
| O=C(C[Se]C(=O)c1cccnc1Nc1cccc(C(F)(F)F)c1)Nc1cccc(C(F)(F)F)c1 | NCI60 leukaemia subpanel | NCI60 five-dose screen |  |  | mean TGI | 4.19 µM |
| CC(C)c1ccc(N(C)c2ccc3c(c2)OCC[C@H]3CNc2cnccc2C(=O)O)cc1 | SNU-886 | cell growth or viability, ATP luminescence | 7 days |  | IC50 | ≥ 10 µM |
| Cc1cc(Cl)cc(-c2ccnc3cc(CN4C(=O)C5C(C4=O)C5(C)C)sc23)c1C[C@@H]1CNCCO1 (stereo partly shown) | CHP-212 parental | Annexin V-PI flow cytometry | 1 µM, 48 h | baseline: cells | Annexin V-negative PI-positive cells | 2.9% and 2.57% and 4.44% |
| O=C(NCc1cc(F)cc(F)c1)[C@@]1(O)CCN(c2ccc3[nH]ccc3c2)C1=O | HT-1080 | colony formation, soft agar clonogenic | concentration not given |  | efficacy | 52% |
| COc1cc(N(C)CCN(C)C)c(NC(=O)/C=C/c2cc(C)c(F)c(C)c2)cc1Nc1nccc(-c2cn(C)c3ccccc23)n1 | NCI-H1975 | cell growth or viability, MTT | 0.5 µM, 72 h |  | inhibition | 56.7% |
| O=C(C[Se]C(=O)C12CC3CC(CC(C3)C1)C2)Nc1cccc(C(F)(F)F)c1 | NCI60 CNS subpanel | cell growth | 10 µM, 48 h, one-dose |  | mean growth percent | -69.2% |
| CCN(CC)CC(=O)Nc1cccc(-n2cc(-c3ccc4ccc(-c5cn(-c6cccc(NC(=O)CN(CC)CC)c6)nn5)cc4c3)nn2)c1 | RCC4 | PCR angiogenesis array, measured: ITGAV | 5 x IC50, 6 h, normoxia | baseline: untreated | fold regulation | -1.33 |
| COc1ccc(NC(=O)c2ccc3[nH]c(-c4ccc(N(C)C)cc4)nc3c2)cn1 | HCT-116 | measured: NFkB-luc luciferase reporter | concentration not given, unit not given | baseline: DMSO | reporter activity | 2.51 |
| CC(=O)Oc1ccccc1C(=O)[Se]CC(=O)Nc1cccc(C(F)(F)F)c1 | NCI60 melanoma subpanel | cell growth, inhibitor | five-dose |  | GI50 | 2.15 µM |
| CCN(CC)c1ccnc(N2Cc3cnn(Cc4ccc(F)cc4)c3C2)n1 | HEK293 expressing GluA1 and GluA2 | glutamate excitotoxic cell death, CellTox Green | with: glutamate |  | IC50 | 0.543 µM |
| Cc1ncsc1-c1ccc(C(C)NC(=O)C2CC(O)CN2C(=O)C(NC(=O)CCCCCCCCCCN2CCCC(Nc3ncc(Cl)c(Nc4ccccc4S(=O)(=O)C(C)C)n3)C2)C(C)(C)C)cc1 (stereo not shown) | 22Rv1 | RNA-seq, measured: ZNF561 mRNA | concentration not given | baseline: DMSO | log2 fold change | -1.11 |
| NC(=O)c1ccc(-c2ccccc2Cl)c2c3c([nH]c12)CC[C@H](N)C3 | A549 parental | cell proliferation |  |  | IC50 | 0.0449 µM |
| O=CCNCCOn1c(=O)n(OCCNCCO)c(=O)n(OCCNCCOn2c(=O)n(OCCNCCO)c(=O)n(OCCNCCO)c2=O)c1=O | A549 | cell growth or viability, MTT | 50 µg/mL, 48 h |  | viability | 30.9% |

Excerpt of the above:
| SMILES | tested on | assay | setting | scale | measurement | value |
| --- | --- | --- | --- | --- | --- | --- |
| C=CC(=O)Nc1cc(Nc2nccc(-c3c(-c4ccc5c(c4)OCO5)n(C)c4ccccc34)n2)c(OC)cc1N(C)CCN(C)C | NCI-H1975 | cell growth or viability, MTT | 0.5 µM, 72 h |  | inhibition | 73.2% |
| CNS(=O)(=O)Nc1nccc(Cc2c(C)c3ccc(Oc4ncccc4F)cc3oc2=O)c1F | RKO | cell viability | 7 days |  | IC50 | 0.156 µM |
| O=C(C[Se]C(=O)c1cccnc1Nc1cccc(C(F)(F)F)c1)Nc1cccc(C(F)(F)F)c1 | NCI60 leukaemia subpanel | NCI60 five-dose screen |  |  | mean TGI | 4.19 µM |
| CC(C)c1ccc(N(C)c2ccc3c(c2)OCC[C@H]3CNc2cnccc2C(=O)O)cc1 | SNU-886 | cell growth or viability, ATP luminescence | 7 days |  | IC50 | ≥ 10 µM |
| Cc1cc(Cl)cc(-c2ccnc3cc(CN4C(=O)C5C(C4=O)C5(C)C)sc23)c1C[C@@H]1CNCCO1 (stereo partly shown) | CHP-212 parental | Annexin V-PI flow cytometry | 1 µM, 48 h | baseline: cells | Annexin V-negative PI-positive cells | 2.9% and 2.57% and 4.44% |
| O=C(NCc1cc(F)cc(F)c1)[C@@]1(O)CCN(c2ccc3[nH]ccc3c2)C1=O | HT-1080 | colony formation, soft agar clonogenic | concentration not given |  | efficacy | 52% |
